Published values from different studies.
Lines come from different studies, so protocols differ. Numbers after ± are the reported error.
Mitogen-activated protein kinase 14: Mitogen-activated protein kinase 14 (Rattus norvegicus, UniProt P70618)
Sequence of UniProt P70618 (whole entry, looked up): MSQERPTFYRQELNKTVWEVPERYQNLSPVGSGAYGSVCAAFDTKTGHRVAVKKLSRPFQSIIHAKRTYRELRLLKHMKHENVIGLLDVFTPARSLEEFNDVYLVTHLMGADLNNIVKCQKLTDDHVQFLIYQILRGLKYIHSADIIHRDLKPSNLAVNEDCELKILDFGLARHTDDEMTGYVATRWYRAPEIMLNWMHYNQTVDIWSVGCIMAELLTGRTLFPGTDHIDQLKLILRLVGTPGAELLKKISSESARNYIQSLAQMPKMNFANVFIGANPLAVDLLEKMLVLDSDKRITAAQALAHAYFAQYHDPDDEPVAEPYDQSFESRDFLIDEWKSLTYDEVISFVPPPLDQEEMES
14-3-3 protein epsilon: 14-3-3 protein epsilon (Homo sapiens, UniProt P62258)
Sequence of UniProt P62258 (whole entry, looked up): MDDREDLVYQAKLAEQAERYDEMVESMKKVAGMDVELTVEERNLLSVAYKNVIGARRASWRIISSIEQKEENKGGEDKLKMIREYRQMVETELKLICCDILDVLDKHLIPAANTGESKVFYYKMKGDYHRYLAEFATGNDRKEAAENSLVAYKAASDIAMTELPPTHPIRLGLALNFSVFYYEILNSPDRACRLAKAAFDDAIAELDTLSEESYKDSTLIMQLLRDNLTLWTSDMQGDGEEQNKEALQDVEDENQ
Sequence of UniProt P50391 (whole entry, looked up): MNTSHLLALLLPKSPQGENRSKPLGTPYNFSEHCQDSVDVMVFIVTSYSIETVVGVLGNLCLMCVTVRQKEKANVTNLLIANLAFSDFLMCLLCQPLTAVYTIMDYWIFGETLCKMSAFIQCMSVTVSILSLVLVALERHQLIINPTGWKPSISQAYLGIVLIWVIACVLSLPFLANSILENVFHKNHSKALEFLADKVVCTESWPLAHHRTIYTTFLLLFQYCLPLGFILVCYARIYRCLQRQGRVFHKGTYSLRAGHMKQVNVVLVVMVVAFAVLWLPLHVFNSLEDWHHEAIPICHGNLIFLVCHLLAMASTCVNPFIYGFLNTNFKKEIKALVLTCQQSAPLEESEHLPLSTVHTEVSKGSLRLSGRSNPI
Sequence of UniProt P10613 (whole entry, looked up): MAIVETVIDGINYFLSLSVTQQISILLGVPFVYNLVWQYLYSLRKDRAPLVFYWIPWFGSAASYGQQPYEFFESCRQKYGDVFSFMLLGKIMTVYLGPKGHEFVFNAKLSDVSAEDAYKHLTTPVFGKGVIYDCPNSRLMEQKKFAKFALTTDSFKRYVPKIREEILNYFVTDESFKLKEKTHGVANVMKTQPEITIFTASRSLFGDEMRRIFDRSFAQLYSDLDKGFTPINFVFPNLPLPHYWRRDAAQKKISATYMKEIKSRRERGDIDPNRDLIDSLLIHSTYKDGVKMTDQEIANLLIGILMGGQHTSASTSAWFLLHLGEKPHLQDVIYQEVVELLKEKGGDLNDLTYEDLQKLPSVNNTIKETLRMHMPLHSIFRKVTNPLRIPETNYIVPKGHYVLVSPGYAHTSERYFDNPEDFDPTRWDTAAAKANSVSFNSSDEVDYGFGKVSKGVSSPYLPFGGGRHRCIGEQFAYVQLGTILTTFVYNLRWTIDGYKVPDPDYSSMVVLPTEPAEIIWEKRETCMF
Sequence of UniProt Q704Y3 (whole entry, unmodified, looked up): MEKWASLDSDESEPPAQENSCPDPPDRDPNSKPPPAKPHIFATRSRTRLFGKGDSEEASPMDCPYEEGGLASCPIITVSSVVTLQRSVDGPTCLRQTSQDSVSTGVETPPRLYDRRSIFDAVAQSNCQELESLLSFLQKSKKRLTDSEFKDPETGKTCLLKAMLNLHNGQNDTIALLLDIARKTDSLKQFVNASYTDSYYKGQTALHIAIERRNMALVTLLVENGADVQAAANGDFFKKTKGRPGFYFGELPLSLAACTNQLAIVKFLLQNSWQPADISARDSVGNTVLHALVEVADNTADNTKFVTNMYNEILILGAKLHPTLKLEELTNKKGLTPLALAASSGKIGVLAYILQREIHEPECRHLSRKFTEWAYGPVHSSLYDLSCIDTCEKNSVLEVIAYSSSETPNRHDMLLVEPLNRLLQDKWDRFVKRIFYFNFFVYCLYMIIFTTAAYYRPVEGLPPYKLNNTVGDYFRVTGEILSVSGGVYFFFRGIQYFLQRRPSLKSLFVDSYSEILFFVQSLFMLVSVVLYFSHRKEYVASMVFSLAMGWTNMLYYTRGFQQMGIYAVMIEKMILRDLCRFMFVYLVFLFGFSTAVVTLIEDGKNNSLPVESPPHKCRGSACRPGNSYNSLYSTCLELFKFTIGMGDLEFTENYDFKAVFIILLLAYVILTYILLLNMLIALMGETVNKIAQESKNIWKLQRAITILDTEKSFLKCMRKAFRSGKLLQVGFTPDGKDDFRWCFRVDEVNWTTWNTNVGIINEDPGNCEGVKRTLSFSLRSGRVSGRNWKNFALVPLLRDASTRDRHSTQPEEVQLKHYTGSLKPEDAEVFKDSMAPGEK
Sequence of UniProt Q14004 (whole entry, looked up): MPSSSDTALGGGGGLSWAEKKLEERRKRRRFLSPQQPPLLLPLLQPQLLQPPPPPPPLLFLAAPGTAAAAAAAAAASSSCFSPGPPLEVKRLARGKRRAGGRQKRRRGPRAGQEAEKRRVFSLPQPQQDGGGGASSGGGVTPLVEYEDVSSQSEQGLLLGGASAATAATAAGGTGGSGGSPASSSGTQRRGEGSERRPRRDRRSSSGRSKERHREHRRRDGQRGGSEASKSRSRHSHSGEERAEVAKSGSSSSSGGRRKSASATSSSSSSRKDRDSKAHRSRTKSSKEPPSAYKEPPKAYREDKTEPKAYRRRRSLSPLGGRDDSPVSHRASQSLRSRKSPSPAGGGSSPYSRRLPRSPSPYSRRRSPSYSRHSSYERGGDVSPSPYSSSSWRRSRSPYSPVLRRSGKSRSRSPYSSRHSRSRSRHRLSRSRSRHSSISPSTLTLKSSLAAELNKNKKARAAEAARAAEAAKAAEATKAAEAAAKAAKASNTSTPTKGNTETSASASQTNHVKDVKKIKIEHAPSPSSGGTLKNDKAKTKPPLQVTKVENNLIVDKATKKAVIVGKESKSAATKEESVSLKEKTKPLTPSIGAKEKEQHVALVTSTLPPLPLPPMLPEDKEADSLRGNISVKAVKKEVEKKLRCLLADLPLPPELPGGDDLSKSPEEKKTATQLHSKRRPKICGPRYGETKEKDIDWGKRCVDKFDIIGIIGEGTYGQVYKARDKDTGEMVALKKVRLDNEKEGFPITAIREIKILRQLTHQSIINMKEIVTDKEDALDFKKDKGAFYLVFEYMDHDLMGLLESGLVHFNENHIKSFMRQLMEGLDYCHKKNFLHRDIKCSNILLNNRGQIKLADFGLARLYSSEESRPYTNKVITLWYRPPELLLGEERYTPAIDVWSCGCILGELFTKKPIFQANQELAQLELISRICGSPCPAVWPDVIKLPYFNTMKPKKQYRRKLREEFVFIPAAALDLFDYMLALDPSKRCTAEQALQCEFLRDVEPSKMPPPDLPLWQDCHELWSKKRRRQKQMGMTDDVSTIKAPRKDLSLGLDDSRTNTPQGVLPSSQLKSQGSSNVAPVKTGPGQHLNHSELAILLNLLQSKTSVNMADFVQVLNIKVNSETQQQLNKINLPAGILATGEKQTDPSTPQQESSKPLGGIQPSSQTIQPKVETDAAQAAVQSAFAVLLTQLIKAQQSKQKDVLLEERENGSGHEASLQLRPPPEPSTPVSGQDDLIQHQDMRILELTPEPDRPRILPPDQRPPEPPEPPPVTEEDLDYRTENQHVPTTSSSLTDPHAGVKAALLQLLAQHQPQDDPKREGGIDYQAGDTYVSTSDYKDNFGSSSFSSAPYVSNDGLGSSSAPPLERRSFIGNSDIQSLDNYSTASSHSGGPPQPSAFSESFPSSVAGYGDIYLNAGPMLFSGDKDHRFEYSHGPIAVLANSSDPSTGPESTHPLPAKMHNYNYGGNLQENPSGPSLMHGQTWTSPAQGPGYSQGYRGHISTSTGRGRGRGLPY
Sequence of UniProt Q9UKP6 (whole entry, unmodified, looked up): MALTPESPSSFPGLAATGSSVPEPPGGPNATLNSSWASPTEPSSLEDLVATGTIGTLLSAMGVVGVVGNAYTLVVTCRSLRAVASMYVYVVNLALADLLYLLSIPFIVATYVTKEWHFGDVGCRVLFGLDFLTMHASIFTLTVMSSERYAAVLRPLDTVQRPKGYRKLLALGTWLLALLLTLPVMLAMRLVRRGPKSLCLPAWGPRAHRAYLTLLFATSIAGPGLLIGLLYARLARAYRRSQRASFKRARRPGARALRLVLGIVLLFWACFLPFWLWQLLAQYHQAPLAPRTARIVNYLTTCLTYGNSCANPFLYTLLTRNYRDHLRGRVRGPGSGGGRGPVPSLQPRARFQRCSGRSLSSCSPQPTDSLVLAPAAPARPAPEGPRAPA
Sequence of UniProt P18089 (whole entry, looked up): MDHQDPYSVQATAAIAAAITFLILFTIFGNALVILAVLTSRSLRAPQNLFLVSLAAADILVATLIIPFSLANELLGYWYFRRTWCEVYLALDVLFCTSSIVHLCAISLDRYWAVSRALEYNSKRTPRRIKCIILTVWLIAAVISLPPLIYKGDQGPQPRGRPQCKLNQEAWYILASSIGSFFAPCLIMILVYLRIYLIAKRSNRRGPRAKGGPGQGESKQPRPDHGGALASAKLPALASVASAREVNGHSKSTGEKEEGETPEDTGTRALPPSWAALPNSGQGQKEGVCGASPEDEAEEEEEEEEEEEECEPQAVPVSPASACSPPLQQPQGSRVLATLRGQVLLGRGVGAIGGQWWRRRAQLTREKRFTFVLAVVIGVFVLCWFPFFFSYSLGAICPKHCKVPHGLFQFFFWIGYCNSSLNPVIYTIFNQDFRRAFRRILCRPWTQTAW

| Compound | target | test | test system | conditions | measurement | value |
| --- | --- | --- | --- | --- | --- | --- |
| COc1cc2c(cc1O)C(CCc1ccc(Cl)cc1)N(C)CC2 (centres unmarked) | ADRA2B (Homo sapiens, UniProt P18089) | cell-free assay, radioligand |  |  | Ki | 480 nM |
| COC1C2(O)C(=O)N3C=CC(C)(C)c4[nH]c5ccccc5c4C=C3C(=O)N2C23C(C)C(C)(C)N2c2ccccc2C13O (centres unmarked) | uncharacterized protein (Ixodes scapularis, UniProt A0A0N9E2I2) | ion current, positive allosteric modulator |  | 1 min pre-application, added: L-glutamate 100 µM | EC50 | 1120 nM |
| CCC(=O)c1ccc(OCC(O)CN2CCN(C(c3ccccc3)c3ccccc3)CC2)cc1 (centres unmarked) | ERG11 (Candida albicans, UniProt P10613) | enzyme activity, inhibitor, mass spectrometry |  |  | IC50 | 489 nM |
| CC[C@H](C)[C@H](NC(=O)[C@H](CCCNC(=N)N)NC(=O)[C@H](CC(C)C)NC(=O)CNC(=O)[C@H](CCCCN)NC(=O)[C@H](CCCCN)NC(=O)[C@H](CCCNC(=N)N)NC(=O)[C@H](CCCCN)NC(=O)[C@H](CCCCN)NC(=O)[C@H](CCCCN)NC(=O)[C@H](C)NC(=O)[C@@H]1CCCN1C(=O)[C@H](C)NC(=O)[C@@H](N)Cc1ccc(O)cc1)C(=O)N[C@@H](CCCCN)C(=O)NCC(=O)O | Mitogen-activated protein kinase 14 | enzyme activity, inhibitor, fluorescence |  | pH 7.4 | IC50 | 1250 nM |
| CC(=O)N[C@@H](CCCNC(=N)N)C(=O)N[C@H](C(=O)N[C@@H](CCCCN)C(=O)N[C@@H](CO)C(=O)N[C@@H](CCCNC(=N)N)C(=O)N[C@H](C(=O)N[C@@H](Cc1c[nH]c2ccccc12)C(=O)N[C@@H](C)C(=O)N[C@@H](C)C(N)=O)[C@@H](C)OP(=O)(O)O)[C@@H](C)O | 14-3-3 protein epsilon | surface plasmon resonance |  | 298 K | binding free energy | -9.71 ± 0.08 kcal/mol |
| Cc1cc(O)cc(C)c1C[C@H](N)C(=O)N[C@H](CCCNC(=N)N)C(=O)N[C@@H](Cc1ccccc1)C(=O)N(C)CC(=O)N(C)Cc1cc(C(F)(F)F)cc(C(F)(F)F)c1 | OPRD1 (Homo sapiens, UniProt P41143, I304A) |  |  |  | Ki | 9.48 ± 2.17 nM |
| CC(=O)N[C@@H](CCCNC(=N)N)C(=O)N[C@H](C(=O)N[C@@H](CCCCN)C(=O)N[C@@H](CO)C(=O)N[C@@H](CCCNC(=N)N)C(=O)N[C@H](C(=O)N[C@@H](Cc1c[nH]c2ccccc12)C(=O)N[C@@H](C)C(=O)N1Cc2ccccc2C[C@H]1C(N)=O)[C@@H](C)OP(=O)(O)O)[C@@H](C)O | 14-3-3 protein epsilon | surface plasmon resonance |  | 298 K | binding free energy | -10.23 ± 0.02 kcal/mol |
| O=C(N[C@@H]1c2ccccc2C[C@H]1N1CCCC1)c1ccc(-c2ccnc3[nH]ccc23)nc1 | CDK13 (Homo sapiens, UniProt Q14004) | binding, competition with immobilised ligand |  |  | Kd | 10000 nM |
| CCCCC/C=C\C/C=C\C/C=C\C/C=C\CCCC(=O)NCCc1ccc(O)c(O)c1 | Trpv1 (Mus musculus, UniProt Q704Y3, Y512F) | ion current, agonist, whole-cell patch clamp |  | 24 °C, Y512F, +80 mV | EC50 | 60 ± 10 nM |
| CC(C)[C@H](NC(=O)[C@@H]1CSSC(C)(C)[C@H](NC(=O)[C@@H](N)CC(=O)O)C(=O)N[C@@H](Cc2ccccc2)C(=O)N[C@@H](Cc2c[nH]c3ccccc23)C(=O)N[C@@H](CCCCN)C(=O)N[C@@H](Cc2ccc(O)cc2)C(=O)N1)C(=O)O | UTS2R (Homo sapiens, UniProt Q9UKP6, T301A) | IP1 accumulation, agonist, HTRF | HEK293T | 1 h, 37 °C, T301A mutant, 7.39 | EC50 | 0.631 nM |
| CC(=O)N[C@@H](CCCNC(=N)N)C(=O)N[C@@H](Cc1ccc(O)cc1)C(=O)N[C@@H](CCCNC(=N)NC(=O)NCCCCN)C(=O)N[C@@H](CC(C)C)C(=O)N[C@@H](CCCNC(=N)N)C(=O)N[C@H](Cc1ccc(O)cc1)C(N)=O | NPY4R (Homo sapiens, UniProt P50391) | β-arrestin-2 recruitment, antagonist | HEK293T-ARRB2 | added: 3 nM human pancreatic polypeptide | Kb | 533 ± 120 nM |
| CC(=O)N[C@@H](CCCNC(=N)N)C(=O)N[C@H](C(=O)N[C@@H](CCCCN)C(=O)N[C@@H](CO)C(=O)N[C@@H](CCCNC(=N)N)C(=O)N[C@H](C(=O)N[C@@H](Cc1c[nH]c2ccccc12)C(=O)N[C@@H](C)C(=O)N[C@@H](Cc1c[nH]c2ccccc12)C(N)=O)[C@@H](C)OP(=O)(O)O)[C@@H](C)O | 14-3-3 protein epsilon | surface plasmon resonance |  | 298 K | binding free energy | -9.71 ± 0.1 kcal/mol |
| CC[C@H](C)[C@H](NC(=O)[C@H](CCCCN)NC(=O)[C@H](CC(C)C)NC(=O)[C@H](C)NC(=O)[C@H](C)NC(=O)[C@H](C)NC(=O)[C@H](CCCCN)NC(=O)[C@@H](NC(=O)[C@H](CCCCN)NC(=O)[C@H](CC(N)=O)NC(=O)[C@H](CCCCN)NC(=O)[C@@H](NC(=O)[C@H](C)NC(=O)[C@@H](N)Cc1ccc(O)cc1)[C@@H](C)O)C(C)C)C(=O)N[C@H](C(=O)N[C@@H](CCCNC(=N)N)C(=O)O)[C@@H](C)CC | Mitogen-activated protein kinase 14 | enzyme activity, inhibitor, fluorescence |  | pH 7.4 | IC50 | 130000 nM |
| Cc1ccc(C)c(OCCn2cc(C(=O)O)c3ccccc32)c1 | GTPase HRas (HRAS, Homo sapiens, UniProt P01112) | GTP binding, flow cytometry |  | EDTA, added: BODIPY-GTP 100 nM | EC50 | 347 nM |

Excerpt of the above:
| Compound | target | test | test system | conditions | measurement | value |
| --- | --- | --- | --- | --- | --- | --- |
| COc1cc2c(cc1O)C(CCc1ccc(Cl)cc1)N(C)CC2 (centres unmarked) | ADRA2B (Homo sapiens, UniProt P18089) | cell-free assay, radioligand |  |  | Ki | 480 nM |
| COC1C2(O)C(=O)N3C=CC(C)(C)c4[nH]c5ccccc5c4C=C3C(=O)N2C23C(C)C(C)(C)N2c2ccccc2C13O (centres unmarked) | uncharacterized protein (Ixodes scapularis, UniProt A0A0N9E2I2) | ion current, positive allosteric modulator |  | 1 min pre-application, added: L-glutamate 100 µM | EC50 | 1120 nM |
